{"data": "Measured values pooled from the literature", "note": "± marks the error that the study gave."}
{"SMILES": "COc1ccc(-c2c(-c3ccc(C#N)c(F)c3)nc(N3CCC(N)CC3)n(C)c2=O)cc1F", "assay": "item: Diarrhea", "system": "human patients", "setting": "oral, dose not given, grade 3 to 4, dose escalation, NG", "quantity": "treatment-related adverse event incidence", "result": "0%"}
{"SMILES": "Nc1ncnc2c1ncn2[C@@H]1O[C@@H]2COP(=O)([S-])O[C@@H]3[C@H](O)[C@@H](COP([O-])(=S)O[C@H]2[C@H]1O)O[C@H]3n1cnc2c(N)ncnc21.[Na+].[Na+] (stereo partly shown)", "system": "non-tumor-bearing mice, serum", "setting": "intravenous, 1 mg/kg, toxicity study", "quantity": "ALP", "result": "109 ± 28.5 U/L"}
{"SMILES": "C[C@@H](Oc1cc(-c2cnn(C3CCNCC3)c2)cnc1N)c1c(Cl)ccc(F)c1Cl", "system": "CD1 nude mice", "setting": "oral, 20 days daily", "quantity": "maximum tolerated dose", "result": "150 mg/kg"}
{"SMILES": "CC(C)(C)c1cc(-n2nc3ccccc3n2)c(O)c(C(C)(C)C)c1", "system": "human aged 21-60 years", "setting": "concentration not given, sunscreen, 95th percentile", "quantity": "daily dermal exposure dose", "result": "5.06 ng/kg/day"}
{"SMILES": "COc1cc2c(Oc3ccc4[nH]c(C)cc4c3F)ccnc2cc1OCC1(N)CC1", "system": "paediatric refractory sarcoma patients", "setting": "12 mg", "quantity": "mouth ulcer incidence", "result": "0%"}
{"SMILES": "CCc1ccc(CC/C=C/c2ccc3c(c2)C(=O)CC3)cc1", "system": "Sprague-Dawley rat, female", "setting": "oral, 450 mg/kg/day, 14 days", "quantity": "LDH serum activity", "result": "370 U/L"}
{"SMILES": "CC(C)C(=O)OC[C@H]1O[C@@H](n2ccc(NO)nc2=O)[C@H](O)[C@@H]1O", "system": "rat amniotic fluid dialysate", "setting": "250 ng/mL, 6 h, 10 °C, high QC concentration, together with: NHC 1000 ng/mL", "quantity": "autosampler stability", "result": "95.5 ± 6.2%"}
{"SMILES": "C[C@]1(CO)Cc2ncn(-c3ccc(C#N)c(Cl)c3)c2C(=O)O1", "system": "healthy humans", "setting": "10 mg, fasted", "quantity": "drug-related Somnolence incidence", "result": "0%"}
{"SMILES": "O=C1Nc2cc3[nH]nc(-c4ccncc4)c3cc2CN1Cc1ccccc1", "assay": "CTCAE v4.03", "system": "advanced solid tumour patients", "setting": "intravenous, 3.6 mg/kg, schedules 1/2", "quantity": "patients with diarrhoea", "result": "33%"}
{"SMILES": "CN1CC[C@@H](c2c(O)cc(O)c3c(=O)cc(-c4ccc(C(F)(F)F)cc4Cl)oc23)[C@@H]1CO", "assay": "item: Hypoalbuminemia", "system": "relapsed B-cell malignancies or AML", "setting": "oral, 50 mg, grade 3-4, continuous dosing", "quantity": "patients with adverse event", "result": "0%"}
{"SMILES": "O=S(=O)(Nc1ccccc1)c1ccc(NC(=S)Nc2ccccc2)cc1", "system": "mouse, male, blood", "setting": "oral, 20 mg/kg daily, 14 days", "quantity": "mean platelet volume", "result": "4.48 fL"}
{"SMILES": "Cn1c(-c2ccc(C(N)=O)cc2F)nnc1C(C)(C)Oc1c(F)cc(Cl)cc1F", "system": "human", "setting": "oral, 10 mg, single ascending dose", "quantity": "subjects with drug-related TEAE", "result": "0%"}
{"SMILES": "CC[C@H](C)[C@H](NC(=O)[C@H](Cc1ccccc1)NC(=O)[C@H](CCC(=O)O)NC(=O)[C@H](CCCNC(=N)N)NC(=O)[C@H](C)NC(=O)[C@H](C)NC(=O)[C@H](CCC(N)=O)NC(=O)[C@H](CCC(=O)O)NC(=O)[C@H](CCC(=O)O)NC(=O)[C@H](CC(C)C)NC(=O)[C@H](Cc1ccc(O)cc1)NC(=O)[C@H](CO)NC(=O)[C@H](CO)NC(=O)[C@@H](NC(=O)[C@H](CC(=O)O)NC(=O)[C@H](CO)NC(=O)[C@@H](NC(=O)[C@H](Cc1ccccc1)NC(=O)[C@@H](NC(=O)CNC(=O)[C@H](CCC(=O)O)NC(=O)[C@H](C)NC(=O)CCc1cnc[nH]1)[C@@H](C)O)[C@@H](C)O)C(C)C)C(=O)N[C@@H](C)C(=O)N[C@@H](Cc1c[nH]c2ccccc12)C(=O)N[C@@H](CC(C)C)C(=O)N[C@H](C(=O)N[C@@H](CCCNC(=N)N)C(=O)NCC(=O)N[C@@H](CCCNC(=N)N)C(=O)N[C@@H](CCCCNC(=O)COCCOCCNC(=O)COCCOCCNC(=O)CC[C@H](NC(=O)CCCCCCCCCCCCCCCCC(=O)O)C(=O)O)C(=O)NCC(=O)NCC(=O)N[C@@H](CO)C(=O)N[C@@H](CCCCNC(=O)[C@H](CCCCNc1c(NCCCCCN(O)C(=O)CCC(=O)NCCCCCN(O)C(=O)CCC(=O)NCCCCCN(O)C(C)=O)c(=O)c1=O)Nc1c(NCCCCCN(O)C(=O)CCC(=O)NCCCCCN(O)C(=O)CCC(=O)NCCCCCN(O)C(C)=O)c(=O)c1=O)C(=O)O)C(C)C [zirconium-89 labelled]", "assay": "ex vivo gamma counting", "system": "male Sprague-Dawley rat, femur", "setting": "intravenous, 1 nmol, 24 h", "quantity": "tissue uptake", "result": "0.231 %ID/g"}
{"note": "A few entries again:"}
{"SMILES": "CC(C)C(=O)OC[C@H]1O[C@@H](n2ccc(NO)nc2=O)[C@H](O)[C@@H]1O", "system": "rat amniotic fluid dialysate", "setting": "250 ng/mL, 6 h, 10 °C, high QC concentration, together with: NHC 1000 ng/mL", "quantity": "autosampler stability", "result": "95.5 ± 6.2%"}
{"SMILES": "C[C@]1(CO)Cc2ncn(-c3ccc(C#N)c(Cl)c3)c2C(=O)O1", "system": "healthy humans", "setting": "10 mg, fasted", "quantity": "drug-related Somnolence incidence", "result": "0%"}
